Published values from different studies.
Protocols differ between the studies behind these lines. “And” joins repeats or separate records; there may be more than shown. ± gives the spread as reported.
KDM1A: Lysine-specific histone demethylase 1A (KDM1A, Homo sapiens, UniProt O60341)
Rhomboid protease AarA: Rhomboid protease AarA (Providencia stuartii, UniProt P46116)
UniProt P46116, sequence (whole entry, looked up): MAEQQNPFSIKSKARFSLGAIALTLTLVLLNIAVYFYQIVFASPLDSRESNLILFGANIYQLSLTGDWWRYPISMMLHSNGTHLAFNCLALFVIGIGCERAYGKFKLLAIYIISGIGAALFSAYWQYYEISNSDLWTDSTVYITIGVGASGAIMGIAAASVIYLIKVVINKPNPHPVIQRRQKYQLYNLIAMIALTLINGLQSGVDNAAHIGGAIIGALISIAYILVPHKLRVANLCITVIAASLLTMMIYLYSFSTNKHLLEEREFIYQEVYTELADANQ
POLQ helicase domain: DNA polymerase theta, helicase domain (POLQ, Homo sapiens, UniProt O75417)
UniProt O75417, sequence (whole entry, looked up): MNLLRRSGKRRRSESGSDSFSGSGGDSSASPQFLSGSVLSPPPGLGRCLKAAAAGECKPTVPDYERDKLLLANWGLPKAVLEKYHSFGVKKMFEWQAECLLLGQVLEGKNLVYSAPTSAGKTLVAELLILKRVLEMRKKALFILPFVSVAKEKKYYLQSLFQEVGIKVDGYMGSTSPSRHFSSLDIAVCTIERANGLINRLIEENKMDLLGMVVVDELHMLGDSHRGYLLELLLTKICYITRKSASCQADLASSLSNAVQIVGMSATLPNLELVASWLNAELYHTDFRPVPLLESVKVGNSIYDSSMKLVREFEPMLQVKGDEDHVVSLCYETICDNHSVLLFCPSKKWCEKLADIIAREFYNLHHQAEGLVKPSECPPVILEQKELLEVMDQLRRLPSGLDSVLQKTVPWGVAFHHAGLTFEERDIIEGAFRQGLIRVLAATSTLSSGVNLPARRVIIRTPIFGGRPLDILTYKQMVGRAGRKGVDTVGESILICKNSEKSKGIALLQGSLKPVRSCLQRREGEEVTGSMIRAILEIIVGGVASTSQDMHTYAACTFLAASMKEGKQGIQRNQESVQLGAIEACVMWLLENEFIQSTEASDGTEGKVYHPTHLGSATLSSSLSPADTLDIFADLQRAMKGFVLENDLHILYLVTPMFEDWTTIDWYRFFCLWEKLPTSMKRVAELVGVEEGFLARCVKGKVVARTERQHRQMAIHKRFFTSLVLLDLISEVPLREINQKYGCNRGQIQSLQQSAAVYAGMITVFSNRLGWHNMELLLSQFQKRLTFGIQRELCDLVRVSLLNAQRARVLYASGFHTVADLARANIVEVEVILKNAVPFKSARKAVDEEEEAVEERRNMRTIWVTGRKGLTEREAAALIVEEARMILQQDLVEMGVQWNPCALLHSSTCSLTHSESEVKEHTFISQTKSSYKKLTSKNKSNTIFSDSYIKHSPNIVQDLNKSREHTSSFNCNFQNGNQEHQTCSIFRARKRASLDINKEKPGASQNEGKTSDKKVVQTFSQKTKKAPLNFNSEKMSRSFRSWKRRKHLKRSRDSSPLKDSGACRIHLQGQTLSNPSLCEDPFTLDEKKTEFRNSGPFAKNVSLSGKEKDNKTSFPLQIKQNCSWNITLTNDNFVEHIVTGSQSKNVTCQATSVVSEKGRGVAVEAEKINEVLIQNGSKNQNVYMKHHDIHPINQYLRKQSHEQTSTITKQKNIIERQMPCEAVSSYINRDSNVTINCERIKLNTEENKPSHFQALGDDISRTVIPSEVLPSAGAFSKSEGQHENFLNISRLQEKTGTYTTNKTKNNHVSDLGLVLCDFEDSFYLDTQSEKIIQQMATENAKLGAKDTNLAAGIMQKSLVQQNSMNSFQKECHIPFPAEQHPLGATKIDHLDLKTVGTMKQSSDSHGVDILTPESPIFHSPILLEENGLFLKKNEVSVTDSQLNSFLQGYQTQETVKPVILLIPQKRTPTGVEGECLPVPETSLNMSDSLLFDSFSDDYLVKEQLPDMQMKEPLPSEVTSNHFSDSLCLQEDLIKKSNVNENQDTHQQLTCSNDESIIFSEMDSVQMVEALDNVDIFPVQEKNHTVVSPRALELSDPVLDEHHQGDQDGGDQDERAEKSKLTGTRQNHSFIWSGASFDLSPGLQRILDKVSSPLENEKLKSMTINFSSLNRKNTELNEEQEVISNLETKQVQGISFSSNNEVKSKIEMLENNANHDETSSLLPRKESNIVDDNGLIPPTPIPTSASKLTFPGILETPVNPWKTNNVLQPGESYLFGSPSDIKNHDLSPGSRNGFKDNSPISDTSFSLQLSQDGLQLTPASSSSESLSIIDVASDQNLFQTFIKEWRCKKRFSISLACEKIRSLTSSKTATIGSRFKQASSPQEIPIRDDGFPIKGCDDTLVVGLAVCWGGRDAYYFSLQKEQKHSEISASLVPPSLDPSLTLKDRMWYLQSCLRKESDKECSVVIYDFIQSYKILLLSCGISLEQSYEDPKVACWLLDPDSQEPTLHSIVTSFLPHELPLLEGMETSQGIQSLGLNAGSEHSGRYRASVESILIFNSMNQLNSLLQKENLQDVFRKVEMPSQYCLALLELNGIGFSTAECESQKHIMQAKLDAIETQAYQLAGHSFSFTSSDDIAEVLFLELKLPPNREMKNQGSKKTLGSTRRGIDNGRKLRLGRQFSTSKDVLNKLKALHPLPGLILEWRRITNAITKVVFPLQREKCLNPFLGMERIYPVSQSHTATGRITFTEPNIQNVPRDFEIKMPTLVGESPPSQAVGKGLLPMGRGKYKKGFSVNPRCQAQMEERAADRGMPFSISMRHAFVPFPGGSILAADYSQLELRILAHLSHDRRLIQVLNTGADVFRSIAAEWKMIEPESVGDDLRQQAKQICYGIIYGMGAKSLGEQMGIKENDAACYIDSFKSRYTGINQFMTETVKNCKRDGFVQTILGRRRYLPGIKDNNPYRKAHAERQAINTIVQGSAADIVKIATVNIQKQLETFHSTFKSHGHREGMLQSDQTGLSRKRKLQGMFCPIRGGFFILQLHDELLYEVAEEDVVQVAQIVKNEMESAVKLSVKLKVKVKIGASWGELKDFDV
ung: ung (Escherichia coli, UniProt P12295)
UniProt P12295, sequence (whole entry, looked up): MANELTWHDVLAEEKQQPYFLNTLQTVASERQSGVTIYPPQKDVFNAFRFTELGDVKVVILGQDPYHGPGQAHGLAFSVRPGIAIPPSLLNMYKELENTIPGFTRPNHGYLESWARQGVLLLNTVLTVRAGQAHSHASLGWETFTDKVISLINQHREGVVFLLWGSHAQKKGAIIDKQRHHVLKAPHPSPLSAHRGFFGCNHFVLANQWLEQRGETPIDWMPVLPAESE
UniProt P10721, sequence (whole entry, unmodified, looked up): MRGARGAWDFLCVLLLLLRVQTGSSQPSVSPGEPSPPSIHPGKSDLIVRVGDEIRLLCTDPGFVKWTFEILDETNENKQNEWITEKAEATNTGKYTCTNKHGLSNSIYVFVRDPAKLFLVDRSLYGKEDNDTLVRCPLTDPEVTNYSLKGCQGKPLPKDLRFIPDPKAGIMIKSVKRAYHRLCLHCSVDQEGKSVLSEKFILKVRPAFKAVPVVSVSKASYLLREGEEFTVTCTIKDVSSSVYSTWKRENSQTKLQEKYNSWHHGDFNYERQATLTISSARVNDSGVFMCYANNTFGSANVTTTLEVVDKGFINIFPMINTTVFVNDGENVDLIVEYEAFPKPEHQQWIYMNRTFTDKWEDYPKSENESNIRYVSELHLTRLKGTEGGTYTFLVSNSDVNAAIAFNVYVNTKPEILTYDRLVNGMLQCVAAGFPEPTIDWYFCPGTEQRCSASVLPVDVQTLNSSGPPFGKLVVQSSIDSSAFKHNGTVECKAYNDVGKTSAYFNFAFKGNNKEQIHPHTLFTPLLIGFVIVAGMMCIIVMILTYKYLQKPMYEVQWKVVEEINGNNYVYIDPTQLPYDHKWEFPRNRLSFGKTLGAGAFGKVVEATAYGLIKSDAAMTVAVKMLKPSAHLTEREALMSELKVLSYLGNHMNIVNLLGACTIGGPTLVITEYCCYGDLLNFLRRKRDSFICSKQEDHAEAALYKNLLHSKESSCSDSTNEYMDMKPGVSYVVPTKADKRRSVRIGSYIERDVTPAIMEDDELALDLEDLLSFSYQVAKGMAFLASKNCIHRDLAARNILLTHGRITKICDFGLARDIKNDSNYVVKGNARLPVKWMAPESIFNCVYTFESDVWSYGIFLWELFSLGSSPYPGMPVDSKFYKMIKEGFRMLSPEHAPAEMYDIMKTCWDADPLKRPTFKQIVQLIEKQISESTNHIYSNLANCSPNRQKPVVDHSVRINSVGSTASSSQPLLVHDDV
UniProt Q9HB29, sequence (whole entry, looked up): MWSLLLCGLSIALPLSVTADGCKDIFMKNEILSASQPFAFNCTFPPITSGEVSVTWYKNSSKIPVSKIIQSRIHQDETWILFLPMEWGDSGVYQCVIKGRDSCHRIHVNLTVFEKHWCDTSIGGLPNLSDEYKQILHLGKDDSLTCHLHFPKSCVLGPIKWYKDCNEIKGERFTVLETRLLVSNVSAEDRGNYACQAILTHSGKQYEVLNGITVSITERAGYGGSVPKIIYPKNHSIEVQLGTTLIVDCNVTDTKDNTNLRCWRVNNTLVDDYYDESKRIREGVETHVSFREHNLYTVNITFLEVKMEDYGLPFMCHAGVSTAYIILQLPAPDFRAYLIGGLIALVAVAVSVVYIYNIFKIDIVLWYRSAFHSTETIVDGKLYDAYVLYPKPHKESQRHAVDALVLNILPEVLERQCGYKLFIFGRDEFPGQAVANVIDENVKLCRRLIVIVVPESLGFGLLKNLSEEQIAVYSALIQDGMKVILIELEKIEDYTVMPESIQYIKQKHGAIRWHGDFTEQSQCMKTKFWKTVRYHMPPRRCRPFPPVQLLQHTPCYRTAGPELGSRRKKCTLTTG
UniProt Q16539, sequence (whole entry, looked up): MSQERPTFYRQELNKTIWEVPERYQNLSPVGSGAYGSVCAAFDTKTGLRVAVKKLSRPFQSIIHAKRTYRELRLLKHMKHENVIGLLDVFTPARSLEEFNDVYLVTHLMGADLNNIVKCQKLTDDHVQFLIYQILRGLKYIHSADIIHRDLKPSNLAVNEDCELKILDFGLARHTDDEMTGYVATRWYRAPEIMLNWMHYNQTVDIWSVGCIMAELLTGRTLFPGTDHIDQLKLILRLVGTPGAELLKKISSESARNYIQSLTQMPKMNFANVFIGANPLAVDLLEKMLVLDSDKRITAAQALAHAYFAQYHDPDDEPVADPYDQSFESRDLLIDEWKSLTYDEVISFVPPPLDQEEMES

O=C(Nc1ccccc1)c1cccc([C@@H]2C[C@H]2NC2CCC2)c1 (racemic)  remaining activity (KDM1A; demethylase activity, inhibitor, Amplex Red; 0.07407 µM, together with: H3K4me2 peptide; relative to: vehicle): 67.9%
O=C1CC(c2ccccc2)N1S(=O)(=O)c1ccc(Cl)cc1 (centres unmarked)  remaining activity (Rhomboid protease AarA; substrate cleavage, gel-based; 100 µM; relative to: DMSO): 76%
CN(Cc1cc(C2CC2)on1)C(=O)c1cccc(-c2ccc3c(c2)CCO3)c1  remaining activity (Acetyl-CoA synthetase (Cryptococcus neoformans, UniProt J9VFT1); enzyme activity, inhibitor, coupled pyrophosphate; 6.25 µM): 101% and 95.4%
COC(=O)[C@@]1(C)C=C(C(=O)Nc2cccc(C(=O)Nc3ccc(Nc4nccc(-c5cccnc5)n4)c(C)c3)c2)C(=O)CC1  remaining activity (MAPK14 (Homo sapiens, UniProt Q16539); kinase activity, inhibitor; 0.02032 µM, unit not given; relative to: no inhibitor): 1.14
CNC(=O)c1cccc([C@@H]2C[C@H]2NC2CCC2)c1 (racemic)  remaining activity (KDM1A; demethylase activity, inhibitor; 1.852 µM, together with: H3K4me2 peptide): 82.2%
COc1ccccc1-c1ccncc1C(=O)Nc1ccc(OCc2ccc(Cl)cc2)nn1  remaining activity (POLQ helicase domain; ATPase activity, ADP-Glo; 0.015 µM; relative to: 0 µM cpd): 100%
O=C1CC(c2cccc(Br)c2)N1S(=O)(=O)c1cccc(Cl)c1 (centres unmarked)  remaining activity (Rhomboid protease AarA; enzyme activity, inhibitor; 100 µM): 54%
C[C@](C(=O)NC1CCOCC1)(c1cncnc1)N(C(=O)[C@H](F)Cl)c1ccc(OC(F)(F)Cl)cc1  remaining activity (MMP12 (Homo sapiens, UniProt P39900); enzyme activity, inhibitor; 10 µM): 102%
COC(=O)CN1CCCc2cc3cc(C(=O)NC(Cc4cccc(Cl)c4)C(=O)NCC=CS(=O)(=O)c4ccccc4)c(=O)oc3cc21 (centres unmarked)  remaining activity (Procathepsin L (CTSL, Homo sapiens, UniProt P07711); inhibitor; 5 µM, 60 min, together with: Z-Phe-Arg-pNA; relative to: uninhibited control): 6%
O=C=[N][Ru-4]123([n]4c5ccc(O)cc5c5c6c(c7cc(F)c[n+]1c7c54)C(=O)NC6=O)[S+]1CC[S+]2CC[S+]3CC1 (centres unmarked)  remaining activity (KIT (Homo sapiens, UniProt P10721, V560G); enzyme activity; 100 nM, human enzyme, together with: 10 µM ATP; relative to: untreated): 64%
CN(C)C(=O)c1cccc([C@@H]2C[C@H]2NC2CCC2)c1  remaining activity (KDM1A; demethylase activity, inhibitor; 50 µM, together with: H3K4me2 peptide): 40.3%
CCC1(CO)CCCN(C(=O)c2ccc(CSC)o2)C1 (centres unmarked)  remaining activity (ung; enzyme activity, inhibitor; concentration not given, counter-screen): 97.8 ± 3.2%
CC(C)C1CC(=O)N1S(=O)(=O)c1cccc(Cl)c1 (centres unmarked)  remaining activity (Rhomboid protease AarA; enzyme activity, inhibitor; 100 µM): 72%
O=C(Nc1cccc([C@@H]2C[C@H]2NC2CCC2)c1)c1ccccc1  remaining activity (KDM1A; demethylase activity, inhibitor; 0.02286 µM, together with: H3K4me2 peptide): 97.1%
O=C1CC(CCc2ccccc2)N1S(=O)(=O)c1cccc(Cl)c1 (centres unmarked)  remaining activity (Rhomboid protease AarA; enzyme activity, inhibitor; 100 µM): 43%
O=C(Cc1ccc(OCc2ccccc2)cc1)NC1(C(=O)O)CCN(C(=O)c2ccc(-c3cccc(Cl)c3)cc2)CC1  remaining activity (TRPM7 (Homo sapiens, UniProt Q96QT4); kinase activity, inhibitor; 10 µM, together with: ATP at Km): 118%
COC(=O)c1cccc([C@@H]2C[C@H]2NC2CCC2)c1  remaining activity (KDM1A; demethylase activity, inhibitor; 5.556 µM, together with: H3K4me2 peptide): 65.5%
Cc1cc(C(=O)Nc2nc3cccc(C)c3n2[C@H]2CCCCN(C(=O)/C=C/CN(C)C)C2)ccn1  remaining activity (CDC2-like kinase 1 (Trypanosoma brucei brucei, UniProt Q382U0); kinase activity, ADP-Glo; 0.625 µM): 1.73%
Cc1cnc(NC(=O)c2cccc([C@@H]3C[C@H]3NC3CCC3)c2)s1  remaining activity (KDM1A; demethylase activity, inhibitor, Amplex Red; 0.02469 µM, together with: H3K4me2 peptide; relative to: vehicle): 115%
OCC1CCCN(CCNc2cc(-c3ccccc3)nc3ccnn23)C1 (centres unmarked)  remaining activity (ung; enzyme activity, inhibitor; concentration not given, counter-screen): 99.5 ± 4.8%
COc1ccccc1-c1ccncc1C(=O)Nc1nnc(OCc2ccc(Cl)cc2)s1  remaining activity (POLQ helicase domain; ATPase activity, ADP-Glo; 0.004 µM; relative to: 0 µM cpd): 78%
O=C1CC(c2ccccc2)N1S(=O)(=O)c1cccc(Br)c1 (centres unmarked)  remaining activity (Rhomboid protease AarA; enzyme activity, inhibitor; 100 µM): 66%
CCC(NC(=O)c1cccc(-c2ccc(C)nc2N)c1)c1ccnn1C (centres unmarked)  remaining activity (ung; enzyme activity, inhibitor; concentration not given, counter-screen): 103 ± 3%
CC(C)(C)c1ccc(C2CC(=O)N2S(=O)(=O)c2cccc(Cl)c2)cc1 (centres unmarked)  remaining activity (Rhomboid protease AarA; substrate cleavage, gel-based; 100 µM; relative to: DMSO): 94%
Cc1cccc(-c2ccc3nc(NC(=O)C4CCOCC4)nn3c2)c1  remaining activity (AMPK; enzyme activity; 10 µM): 97%
CC(C)[C@@H]1NC(=O)[C@H](Cc2ccccc2)NC(=O)CSC[C@@H](C(N)=O)NC(=O)[C@H](CCC(=O)O)NC(=O)[C@H](CO)NC(=O)[C@H](Cc2c[nH]c3cccc(Cl)c23)NC(=O)[C@H](C2CCCCC2)NC(=O)[C@H](C(C)C)NC(=O)[C@H](Cc2ccc(O)cc2)NC(=O)[C@H](CC(=O)O)NC(=O)[C@H](Cc2c[nH]c3ccccc23)NC(=O)[C@H](Cc2ccc(N)nc2)NC(=O)[C@H](Cc2c[nH]c3ccc(Cl)cc23)NC(=O)[C@H](CCC(=O)O)NC1=O  remaining activity (Interleukin-1 receptor-like 2 (IL1RL2, Homo sapiens, UniProt Q9HB29); reporter gene; HEK-Blue IL-36R; 33.33 µM, 6 h, together with: IL-36γ 0.3 ng/mL; relative to: stimulated without compound): 0.4%
COc1cc(Nc2nc(C)cc(-c3cnn4nc(OC)ccc34)n2)cc(C(F)(F)F)c1  remaining activity (KIT (Homo sapiens, UniProt P10721, T670I/V559D); inhibitor; 1 µM; relative to: control): 85%
Cc1nnc(NC(=O)c2ccc([C@@H]3C[C@H]3NC3CCC3)cc2)s1 (racemic)  remaining activity (KDM1A; demethylase activity, inhibitor; 0.02286 µM, together with: H3K4me2 peptide): 102%
CC1C(=O)N(S(=O)(=O)c2ccccc2)C1c1ccccc1 (centres unmarked)  remaining activity (Rhomboid protease AarA; substrate cleavage, gel-based; 100 µM; relative to: DMSO): 95%

Repeated from above:
Cc1cc(C(=O)Nc2nc3cccc(C)c3n2[C@H]2CCCCN(C(=O)/C=C/CN(C)C)C2)ccn1  remaining activity (CDC2-like kinase 1 (Trypanosoma brucei brucei, UniProt Q382U0); kinase activity, ADP-Glo; 0.625 µM): 1.73%
Cc1cnc(NC(=O)c2cccc([C@@H]3C[C@H]3NC3CCC3)c2)s1  remaining activity (KDM1A; demethylase activity, inhibitor, Amplex Red; 0.02469 µM, together with: H3K4me2 peptide; relative to: vehicle): 115%
